Measurements pooled from the literature.
“And” joins repeats or separate records; there may be more than shown.
Partner: itself
B1: ACAT1 35-427 Y214F (Homo sapiens, UniProt P24752); pY407; chain SKPTLKEVVIVSATRTPIGSFLGSLSLLPATKLGSIAIQGAIEKAGIPKEEVKEAYMGNVLQGGEGQAPTRQAVLGAGLPISTPCTTINKVCASGMKAIMMASQSLMCGHQDVMVAGGMESMSNVPYVMNRGSTPYGGVKLEDLIVKDGLTDVYNKIHMGSCAENTAKKLNIARNEQDAFAINSYTRSKAAWEAGKFGNEVIPVTVTVKGQPDVVVKEDEEYKRVDFSKVPKLKTVFQKENGTVTAANASTLNDGAAALVLMTADAAKRLNVTPLARIVAFADAAVEPIDFPIAPVYAASMVLKDVGLKKEDIAMWEVNEAFSLVVLANIKMLEIDPQKVNINGGAVSLGHPIGMSGARIVGHLTHALKQGEYGLASICNGGGGASAMLIQKL
B2: AMY3 56-391 (Arabidopsis thaliana, UniProt Q94A41); sequence looked up; chain SMNKSPVAIRATSSDTAVVETAQSDDVIFKEIFPVQRIEKAEGKIYVRLKEVKEKNWELSVGCSIPGKWILHWGVSYVGDTGSEWDQPPEDMRPPGSIAIKDYAIETPLKKLSEGDSFFEVAINLNLESSVAALNFVLKDEETGAWYQHKGRDFKVPLVDDVPDNGNLIGAKKGFGALGQLSNIPLKQDKSSAETDSIEERKGLQEFYEEMPISKRVADDNSVSVTARKCPETSKNIVSIETDLPGDVTVHWGVCKNGTKKWEIPSEPYPEETSLFKNKALRTRLQRKDDGNGSFGLFSLDGKLEGLCFVLKLNENTWLNYRGEDFYVPFLTSSSS
B3: spo0J K256A (Bacillus subtilis, UniProt P26497); chain MAKGLGKGINALFNQVDLSEETVEEIKIADLRPNPYQPRKHFDDEALAELKESVLQHGILQPLIVRKSLKGYDIVAGERRFRAAKLAGLDTVPAIVRELSEALMREIALLENLQREDLSPLEEAQAYDSLLKHLDLTQEQLAKRLGKSRPHIANHLRLLTLPENIQQLIAEGTLSMGHGRTLLGLKNKNKLEPLVQKVIAEQLNVRQLEQLIQQLNQNVPRETKKKEPVKDAVLKERESYLQNYFGTTVNIKRQKAKGKIEIEFFSNEDLDRILELLSERES
B4: Nefl 1-415 (Mus musculus, UniProt P08551); sequence looked up; chain MSSFGYDPYFSTSYKRRYVETPRVHISSVRSGYSTARSAYSSYSAPVSSSLSVRRSYSSSSGSLMPSLENLDLSQVAAISNDLKSIRTQEKAQLQDLNDRFASFIERVHELEQQNKVLEAELLVLRQKHSEPSRFRALYEQEIRDLRLAAEDATNEKQALQGEREGLEETLRNLQARYEEEVLSREDAEGRLMEARKGADEAALARAELEKRIDSLMDEIAFLKKVHEEEIAELQAQIQYAQISVEMDVSSKPDLSAALKDIRAQYEKLAAKNMQNAEEWFKSRFTVLTESAAKNTDAVRAAKDEVSESRRLLKAKTLEIEACRGMNEALEKQLQELEDKQNADISAMQDTINKLENELRSTKSEMARYLKEYQDLLNVKMALDIEIAAYRKLLEGEETRLSFTSVGSITSGYSQ
B5: Lag3 24-426 (Mus musculus, UniProt Q61790); sequence looked up; chain GPGKELPVVWAQEGAPVHLPCSLKSPNLDPNFLRRGGVIWQHQPDSGQPTPIPALDLHQGMPSPRQPAPGRYTVLSVAPGGLRSGRQPLHPHVQLEERGLQRGDFSLWLRPALRTDAGEYHATVRLPNRALSCSLRLRVGQASMIASPSGVLKLSDWVLLNCSFSRPDRPVSVHWFQGQNRVPVYNSPRHFLAETFLLLPQVSPLDSGTWGCVLTYRDGFNVSITYNLKVLGLEPVAPLTVYAAEGSRVELPCHLPPGVGTPSLLIAKWTPPGGGPELPVAGKSGNFTLHLEAVGLAQAGTYTCSIHLQGQQLNATVTLAVITVTPKSFGLPGSRGKLLCEVTPASGKERFVWRPLNNLSRSCPGPVLEIQEARLLAERWQCQLYEGQRLLGATVYAAESSSG
B6: RBKS (Homo sapiens, UniProt Q9H477); sequence looked up; chain MAASGEPQRQWQEEVAAVVVVGSCMTDLVSLTSRLPKTGETIHGHKFFIGFGGKGANQCVQAARLGAMTSMVCKVGKDSFGNDYIENLKQNDISTEFTYQTKDAATGTASIIVNNEGQNIIVIVAGANLLLNTEDLRAAANVISRAKVMVCQLEITPATSLEALTMARRSGVKTLFNPAPAIADLDPQFYTLSDVFCCNESEAEILTGLTVGSAADAGEAALVLLKRGCQVVIITLGAEGCVVLSQTEPEPKHIPTEKVKAVDTTGAGDSFVGALAFYLAYYPNLSLEDMLNRSNFIAAVSVQAAGTQSSYPYKKDLPLTLF
B7: TWNK 43-684 (Homo sapiens, UniProt Q96RR1); chain ETLQALDMPVLPVTATEIRQYLRGHGIPFQDGHSCLRALSPFAESSQLKGQTGVTTSFSLFIDKTTGHFLCMTSLAEGSWEDFQASVEGRGDGAREGFLLSKAPEFEDSEEVRRIWNRAIPLWELPDQEEVQLADTMFGLTKVTDDTLKRFSVRYLRPARSLVFPWFSPGGSGLRGLKLLEAKCQGDGVSYEETTIPRPSAYHNLFGLPLISRRDAEVVLTSRELDSLALNQSTGLPTLTLPRGTTCLPPALLPYLEQFRRIVFWLGDDLRSWEAAKLFARKLNPKRCFLVRPGDQQPRPLEALNGGFNLSRILRTALPAWHKSIVSFRQLREEVLGELSNVEQAAGLRWSRFPDLNRILKGHRKGELTVFTGPTGSGKTTFISEYALDLCSQGVNTLWGSFEISNVRLARVMLTQFAEGRLEDQLDKYDHWADRFEDLPLYFMTFHGQQSIRTVIDTMQHAVYVYDICHVIIDNLQFMMGHEQLSTDRIAAQDYIIGVFRKFATDNNCHVTLVIHPRKEDDDKELQTASIFGSAKASQEADNVLILQDRKLVTGPGKRYLQVSKNRFDGDVGVFPLEFNKNSLTFSIPPKNKARLKKIKDDTGPVAKKPSSGKKGATTQNSEICSGQAPTPDQPDTSKRSK
B8: SSO0001 Cas4 1-202 (Saccharolobus solfataricus, UniProt Q97TX9); selenomethionine; chain MITEFLLKKKLEEHLSHVKEENTIYVTDLVRCPRRVRYESEYKELAISQVYAPSAILGDILHLGLESVLKGNFNAETEVETLREINVGGKVYKIKGRADAIIRNDNGKSIVIEIKTSRSDKGLPLIHHKMQLQIYLWLFSAEKGILVYITPDRIAEYEINEPLDEATIVRLAEDTIMLQNSPRFNWECKYCIFSVICPAKLT
B9: CENPF 1-385 (Homo sapiens, UniProt P49454); sequence looked up; chain MSWALEEWKEGLPTRALQKIQELEGQLDKLKKEKQQRQFQLDSLEAALQKQKQKVENEKTEGTNLKRENQRLMEICESLEKTKQKISHELQVKESQVNFQEGQLNSGKKQIEKLEQELKRCKSELERSQQAAQSADVSLNPCNTPQKIFTTPLTPSQYYSGSKYEDLKEKYNKEVEERKRLEAEVKALQAKKASQTLPQATMNHRDIARHQASSSVFSWQQEKTPSHLSSNSQRTPIRRDFSASYFSGEQEVTPSRSTLQIGKRDANSSFFDNSSSPHLLDQLKAQNQELRNKINELELRLQGHEKEMKGQVNKFQELQLQLEKAKVELIEKEKVLNKCRDELVRTTAQYDQASTKYTALEQKLKKLTEDLSCQRQNAESARCSL
B10: protein S723T (Penicillium verruculosum, UniProt A0A348FUE1); sequence looked up; chain MSPMDLQESAAALVRQLGERVEDRRGFGFMSPAIYDTAWVSMISKTIDDQKTWLFAECFQYILSHQLEDGGWAMYASEIDAILNTSASLLSLKRHLSNPYQITSITQEDLSARINRAQNALQKLLNEWNVDSTLHVGFEILVPALLRYLEDEGIAFAFSGRERLLEIEKQKLSKFKAQYLYLPIKVTALHSLEAFIGAIEFDKVSHHKVSGAFMASPSSTAAYMMHATQWDDECEDYLRHVIAHASGKGSGGVPSAFPSTIFESVWPLSTLLKVGYDLNSAPFIEKIRSYLHDAYIAEKGILGFTPFVGADADDTATTILVLNLLNQPVSVDAMLKEFEEEHHFKTYSQERNPSFSANCNVLLALLYSQEPSLYSAQIEKAIRFLYKQFTDSEMDVRDKWNLSPYYSWMLMTQAITRLTTLQKTSKLSTLRDDSISKGLISLLFRIASTVVKDQKPGGSWGTRASKEETAYAVLILTYAFYLDEVTESLRHDIKIAIENGCSFLSERTMQSDSEWLWVEKVTYKSEVLSEAYILAALKRAADLPDENAEAAPVINGISTNGFEHTDRINGKLKVNGTNGTNGSHETNGINGTHEIEQINGVNGTNGHSDVPHDTNGWVEEPTAINETNGHYVNGTNHETPLTNGISNGDSVSVHTDHSDSYYQRSDWTADEEQILLGPFDYLESLPGKNMRSQLIQSFNTWLKVPTESLDVIIKVISMLHTATLLIDDIQDQSILRRGQPVAHSIFGTAQAMNSGNYVYFLALREVQKLQNPKAISIYVDSLIDLHRGQGMELFWRDSLMCPTEEQYLDMVANKTGGLFCLAIQLMQAEATIQVDFIPLVRLLGIIFQICDDYLNLKSTAYTDNKGLCEDLTEGKFSFPIIHSIRSNPGNRQLINILKQKPREDDIKRYALSYMESTNSFEYTRGVVRKLKTEAIDTIQGLEKHGLEENIGIRKILARMSLEL
B11: At5g06450 2-206 (Arabidopsis thaliana, UniProt Q9FNG3); selenomethionine; chain ASFDGPKFKMTDGSYVQTKTIDVGSSTDISPYLSLIREDSILNGNRAVIFDVYWDVGFPETETKTKTSGWSLSSVKLSTRNLCLFLRLPKPFHDNLKDLYRFFASKFVTFVGVQIEEDLDLLRENHGLVIRNAINVGKLAAEARGTLVLEFLGTRELAHRVLWSDLGQLDSIEAKWEKAGPEEQLEAAAIEGWLIVNVWDQLSDE
B12: phage phi29 gene 12 product D1*-D2-D3-D4 89-854 G817S/S777N/D701G/A535V/D457E/G449V/D372A/Q181E/K166R/D692N (bacteriophage phi29, UniProt P20345); N-terminal His6; sequence looked up; chain FADLVIQVIDELKQFGVSVKTYGAKGDGVTDDIRAFEKAIESGFPVYVPYGTFMVSRGIKLPSNTVLTGAGKRNAVIRFMDSVGRGESLMYNENVTTGNENIFLSSFTLDGNNKRLGQGISGIGGSRESNLSIRACHNVYIRDIEAVDCTLHGIDITCGGLDYPYLGDGTTAPNPSENIWIENCEATGFGDDGITTHHSQYINILNCYSHDPRLTANCNGFEIDDGSRHVVLSNNRSKGCYGGIEIKAHGDAPAAYNISINGHMSVEDVRSYNFRHIGHHAATAPQSVSAKNIVASNLVSIRPNNKRGFQDNATPRVLAVSAYYGVVINGLTGYTDDPNLLTETVVSVQFRARNCSLNGVVLTGFSNSENGIYVIGGSRGGDAVNISNVTLNNSGRYGVSIGSGIENVSITNISGIGDGINSPVALVSTINSNPEISGLSSIGYPTVARVAGTDYNDGLTLFNGAFRASTTSSGKIHSEGFIMGSTSGCEASVSKSGVLTSSSSKTSSERSLIAGSSTSEAKGTYNTILGSLGAVADEQFAALISASQSRASGNHNLILSSYGINTTGSYKVNGGFEKINWELDSLNGRIKARDTVTGGNTWSNFAEYFESLGGQVIETGYLVTLEKGKIRKAEKGEKIIGVISETAGFVLGESSFEWQGAVLKNEFGGIIYEEVTTEDGVKFKRPLPNPDFDPNKNYIPRSQRREWHVVGLLGQIAVRIDETVKQGHSIDAVGGVATDGDNFIVQEITTPYTKEKGYGVAIVLVK
B13: SERPINA1 25-347 C232S (Homo sapiens, UniProt P01009); sequence looked up; chain EDPQGDAAQKTDTSHHDQDHPTFNKITPNLAEFAFSLYRQLAHQSNSTNIFFSPVSIATAFAMLSLGTKADTHDEILEGLNFNLTEIPEAQIHEGFQELLRTLNQPDSQLQLTTGNGLFLSEGLKLVDKFLEDVKKLYHSEAFTVNFGDTEEAKKQINDYVEKGTQGKIVDLVKELDRDTVFALVNYIFFKGKWERPFEVKDTEEEDFHVDQVTTVKVPMMKRLGMFNIQHSKKLSSWVLLMKYLGNATAIFFLPDEGKLQHLENELTHDIITKFLENEDRRSASLHLPKLSITGTYDLKSVLGQLGITKVFSNGADLSGVTE
B14: ilvA 335-514 F352A (Escherichia coli, UniProt P04968); sequence looked up; chain EQREALLAVTIPEEKGSALKFCQLLGGRSVTEFNYRFADAKNACIFVGVRLSRGLEERKEILQMLNDGGYSVVDLSDDEMAKLHVRYMVGGRPSHPLQERLYSFEFPESPGALLRFLNTLGTYWNISLFHYRSHGTDYGRVLAAFELGDHEPDFETRLNELGYDCHDETNNPAFRFFLAG

Molecule | technique | cells | time | pH | notes | with | subunits per oligomer
B1 (ACAT1 35-427 Y214F) | native gel | – | – | – | Y214F mutant | – | 4
B2 (AMY3 56-391) | cross-linking | – | 30 min | pH 7.5 | – | – | 2
B3 (spo0J K256A) | SEC-MALS | – | – | – | – | – | 2
B4 (Nefl 1-415) | AUC, electron microscopy | – | – | – | – | – | 2 and 4
B5 (Lag3 24-426) | AUC | – | – | – | – | – | 2
B6 (RBKS) | mass photometry | – | – | – | – | – | 2
B7 (TWNK 43-684) | SEC | – | – | – | – | – | 6
B8 (SSO0001 Cas4 1-202) | X-ray crystallography | – | – | – | – | – | 10 protomers
B9 (CENPF 1-385) | SEC-MALS | – | – | – | – | – | 2
TMEM94 (Homo sapiens, UniProt Q12767-3) | cross-linking | HEK293 | – | – | in cells, not purified | – | 3
B10 (protein S723T) | cryo-EM | – | – | – | – | – | 6
B11 (At5g06450 2-206) | X-ray crystallography | – | – | – | – | – | 6
B12 | SDS-PAGE | – | – | – | – | – | 3
B13 (SERPINA1 25-347 C232S) | AUC | – | – | – | velocity sedimentation | – | 2
B14 (ilvA 335-514 F352A) | crystal structure | – | – | – | – | isoleucine | 2
MRKVVSVRLKEDVLRDVDIYTRKLGLNSRTEFIKQAIEFYIKSKS (SiRe_1373 (Saccharolobus islandicus, UniProt F0NI75); sequence looked up) | SEC | – | – | – | – | – | 2
